{"data": "Assay results pooled from the literature", "note": "Each numbered part is a random draw from the data of one study; scales do not carry over between parts."}
{"data": "Block 1", "target": "Interferon regulatory factor 5, full length, phosphomimetic (IRF5, Homo sapiens, UniProt Q13568-2, residues 1-514, S451D/S453D/S456D/S462D)", "method": "protein-binding microarray", "form": "double-stranded DNA, one strand shown", "matrix": "in vitro", "concentration": "940 nM top", "setting": "60-bp whole probe", "with": "salmon DNA 0.4 mg/ml", "reference": "random background probes", "direction": "higher = stronger binding", "shared flanks, not repeated": "GCCTAGCAC … GTCTTGATTCGCTTGACGCTGCTG"}
{"Oligonucleotide": "GACGAACTGAATATCGAGACGTGCTAG", "fitted relative affinity [z-score]": -0.273}
{"Oligonucleotide": "TGAGGTTTCGACACTGGGTTAGTGCTA", "fitted relative affinity [z-score]": 5.52}
{"Oligonucleotide": "TTAGGTATCGGTCTTGGTTAGTGCTAG", "fitted relative affinity [z-score]": 8.94}
{"Oligonucleotide": "TTAGGTTTCGGTCTCGGTGAGTGCTAG", "fitted relative affinity [z-score]": 14.7}
{"Oligonucleotide": "TGTCTTCCCCTCTCTTTCCAAGTGCTA", "fitted relative affinity [z-score]": 1.69}
{"Oligonucleotide": "TTAGGACTGGGGTATCGGCTAGTGCTA", "fitted relative affinity [z-score]": 0.704}
{"Oligonucleotide": "ATAGGACTGGACTATCGGTTAGTGCTA", "fitted relative affinity [z-score]": -0.00961}
{"Oligonucleotide": "TTAGGTTTCCTTTTCCTGTAGTGCTAG", "fitted relative affinity [z-score]": 2.29}
{"Oligonucleotide": "TTTTCAGCATCGCTCAGCACGTGCTAG", "fitted relative affinity [z-score]": 0.383}
{"Oligonucleotide": "TTTGATTTCGGGTTTCGATTAGTGCTA", "fitted relative affinity [z-score]": 6.39}
{"Oligonucleotide": "TCATTTTTCTTTTATTAACTGTGCTAG", "fitted relative affinity [z-score]": 1.53}
{"Oligonucleotide": "ATTGAGAATTCCACTCCGCTGTGCTAG", "fitted relative affinity [z-score]": 0.0888}
{"Oligonucleotide": "TTCTGAATGCCCTCTAACTTCGTGCTA", "fitted relative affinity [z-score]": 0.168}
{"Oligonucleotide": "GACGATCTTAGACTGGAGACGTGCTAG", "fitted relative affinity [z-score]": -0.748}
{"Oligonucleotide": "GACGAACTGAGACTGGTGACGTGCTAG", "fitted relative affinity [z-score]": -0.186}
{"Oligonucleotide": "TTAGATCTCATACTGGATTAGTGCTAG", "fitted relative affinity [z-score]": 0.348}
{"Oligonucleotide": "TCTTCTGGTGTGTCTGAAGAGTGCTAG", "fitted relative affinity [z-score]": -0.0409}
{"Oligonucleotide": "TTAGGACTGGGTCGCGGTTAGTGCTAG", "fitted relative affinity [z-score]": -0.216}
{"data": "Block 2", "target": "Histone acetyltransferase KAT6A, winged helix 2, GST fusion (KAT6A, Homo sapiens, UniProt Q92794, residues 85-181)", "method": "protein binding microarray", "form": "double-stranded DNA, one strand shown", "matrix": "in vitro", "concentration": "not given", "setting": "8-mer, flanks averaged, mean of 2 arrays, mostly near background", "reference": "not given", "direction": "higher = stronger binding", "Residues (chain)": "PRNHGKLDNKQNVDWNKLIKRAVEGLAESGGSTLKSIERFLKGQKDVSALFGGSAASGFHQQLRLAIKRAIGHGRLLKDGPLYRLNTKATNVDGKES"}
{"Oligonucleotide": "ACGGTGCC", "E-score": 0.229}
{"Oligonucleotide": "CAATATGC", "E-score": -0.139}
{"Oligonucleotide": "GAGAGACA", "E-score": -0.0729}
{"Oligonucleotide": "GAAATAGC", "E-score": 0.0277}
{"Oligonucleotide": "TCTTGTAA", "E-score": 0.0206}
{"Oligonucleotide": "CAAAGTGA", "E-score": -0.017}
{"Oligonucleotide": "AACTCCCG", "E-score": 0.172}
{"Oligonucleotide": "GTCAGACA", "E-score": 0.02}
{"Oligonucleotide": "CCGCCCAC", "E-score": 0.214}
{"Oligonucleotide": "AATGGCCC", "E-score": 0.0149}
{"Oligonucleotide": "GGAGTCCC", "E-score": -0.0961}
{"Oligonucleotide": "ACACGTTC", "E-score": -0.148}
{"Oligonucleotide": "CAGAGAGA", "E-score": 0.12}
{"Oligonucleotide": "GATTCCGA", "E-score": 0.0413}
{"Oligonucleotide": "ATATGAAG", "E-score": -0.0419}
{"Oligonucleotide": "ATACAATA", "E-score": -0.0379}
{"Oligonucleotide": "TAGATTGA", "E-score": 0.0278}
{"Oligonucleotide": "ACGGTCCT", "E-score": -0.163}
{"Oligonucleotide": "GAAGTGCA", "E-score": 0.0327}
{"Oligonucleotide": "AATGTCCG", "E-score": -0.0125}
{"data": "Block 3", "target": "RNA binding protein fox-1 homolog 2, RRM domain, GST-SBP tag (RBFOX2, Homo sapiens, UniProt O43251-10, residues 100-194)", "method": "RNA Bind-n-Seq", "form": "RNA", "matrix": "in vitro", "concentration": "365 nM", "setting": "natural RNA segment, single round, ends assumed", "reference": "no-protein control", "direction": "higher = stronger binding", "Construct (chain)": "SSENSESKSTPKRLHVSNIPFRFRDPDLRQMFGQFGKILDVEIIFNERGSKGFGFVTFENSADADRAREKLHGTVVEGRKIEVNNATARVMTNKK"}
{"Oligonucleotide": "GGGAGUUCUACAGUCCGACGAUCUUGUAGUUGCCUUUGGGUUUUUGUCUUUGUUUUUCUGUCUUUUGUUAAAUCUGCUCUUAAAGUUCACCAAAGCUAAGACAGUUGCCAGGGCAGACAGGAGUCCAGGCUCCUGGAAUUCUCGGGUGCCAA", "RBNS enrichment (R)": 0.345}
{"Oligonucleotide": "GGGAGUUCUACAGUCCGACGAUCCCCCAUUUAUGGUGCUCUGUAUUCUGGCAUUAUGCAGCAGCCUCCCAGAAGCUCUCUUCUGCUUCAAAACCUGGGAUCUCUGGCAUUACCCUAUUGGGAUGGACCGCUGGUGGAAUUCUCGGGUGCCAA", "RBNS enrichment (R)": 0.438}
{"Oligonucleotide": "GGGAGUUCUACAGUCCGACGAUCUCCAGGCUUGGCUGAGACGGACGGUAGACUUCCACCAUGUACCGAUCACAUCCCAGCUCUGCAUGGCCCCUGCUAAGGCUCAGGUAUAACCUCACCUUCCCUGGCUCAUCUGGAAUUCUCGGGUGCCAA", "RBNS enrichment (R)": 0.648}
{"Oligonucleotide": "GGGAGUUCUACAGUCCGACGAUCUCUGUGCCACGUGUUUGUGCUGUGGUGUGUCCCCCUCUGUCCAGGCACUGAGAUACCAGCGAGGAGGCUCCAGAGGGCACUCUGCUUGUUAUUAGAGAUUACCUCCUGAGUGGAAUUCUCGGGUGCCAA", "RBNS enrichment (R)": 0.876}
{"Oligonucleotide": "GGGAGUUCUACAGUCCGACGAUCUAUAUAAUGUUUGUGUCAUGUAUAUGCCUAAAUUUUAAUUAUCUAUAAAUAAAACAUCUGACAUAAAGUGUAGGCUGAGCUUUCUUAACCAGUACAACCAAAAAAUCAAUUGGAAUUCUCGGGUGCCAA", "RBNS enrichment (R)": 0.582}
{"Oligonucleotide": "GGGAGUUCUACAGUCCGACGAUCGUCCAGUGAAAUCUCAUUAGGGUUUAAGAAUAUUUCAGGGAUCCUUAAUGUUUUGAUUUUUGUUUUCUGAAAUUGGAUUUUAUUUUAUUUUAUCUUAUAAUUUCAGUUCAUGGAAUUCUCGGGUGCCAA", "RBNS enrichment (R)": 0.629}
{"Oligonucleotide": "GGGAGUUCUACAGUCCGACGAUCUAGUGUCAUUCCUGGAAUUAACUUAUCAUGCAUUUGCUUAGUUAAAGUCAAAAUUUAAUAUUGGUUCUUUAACUGAAAUAUUUAAUUGAGCACUUACAUCUCUAUUGCUUUGGAAUUCUCGGGUGCCAA", "RBNS enrichment (R)": 0.401}
{"Oligonucleotide": "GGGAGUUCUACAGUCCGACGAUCUUUUUCUUUUUAUUUUCGAAGGCUUUGUUUUGGUUUCUUAGGUUAAGAUGCUCUCGAGCGUUGAGCAGGCACAGCUCUGUCGAGGUCCCUGUCCCCCACCUGUGGUUCUGUGGAAUUCUCGGGUGCCAA", "RBNS enrichment (R)": 0.565}
{"data": "Block 4", "target": "Prothrombin, mature alpha-thrombin (F2, Homo sapiens, UniProt P00734)", "method": "aptamer microarray, sandwich", "form": "DNA with 2'F-ANA", "matrix": "in vitro", "concentration": "200 nM", "setting": "whole 15-mer aptamer, many near background", "with": "Cy3 exosite-II aptamer, 400 nM", "direction": "higher = stronger binding", "oligonucleotide": "GGTTGGTGTGGTTGG"}
{"Modification": "2'F-ANA at 1 2 3 4 11 12 13 14 15", "mean fluorescence intensity [a.u.]": 106}
{"Modification": "2'F-ANA at 3 4 5 7 9 10 14 15", "mean fluorescence intensity [a.u.]": 48.5}
{"Modification": "2'F-ANA at 1 2 3 4 5 7 9 10 11 12 13 14 15", "mean fluorescence intensity [a.u.]": 70.5}
{"Modification": "2'F-ANA at 2 4 7 12 13 15", "mean fluorescence intensity [a.u.]": 481}
{"Modification": "2'F-ANA at 2 4 6 7 9 10 13", "mean fluorescence intensity [a.u.]": 108}
{"Modification": "2'F-ANA at 2 3 4 5 7 9 10 11", "mean fluorescence intensity [a.u.]": 53.3}
{"Modification": "2'F-ANA at 1 2 6 9 12 13 15", "mean fluorescence intensity [a.u.]": 218}
{"Modification": "2'F-ANA at 1 9 10 12 15", "mean fluorescence intensity [a.u.]": 74.3}
{"Modification": "2'F-ANA at 2 4 5 7 8 10 11 12 13 14", "mean fluorescence intensity [a.u.]": 45.4}
{"Modification": "2'F-ANA at 1 3 7 10 11 13 14", "mean fluorescence intensity [a.u.]": 81}
{"Modification": "2'F-ANA at 13 14", "mean fluorescence intensity [a.u.]": 247}
{"Modification": "2'F-ANA at 7 8 9 12 13", "mean fluorescence intensity [a.u.]": 747}
{"Modification": "2'F-ANA at 2 3 9 10 12 14", "mean fluorescence intensity [a.u.]": 321}
{"Modification": "2'F-ANA at 3 4 5 8 10 11 12 15", "mean fluorescence intensity [a.u.]": 56.2}
{"Modification": "2'F-ANA at 1 2 5 6 7 12", "mean fluorescence intensity [a.u.]": 229}
{"Modification": "2'F-ANA at 1 3 5 6 7 8 9 14", "mean fluorescence intensity [a.u.]": 59.6}
{"Modification": "2'F-ANA at 2 3 4 5 6 8 9 11 15", "mean fluorescence intensity [a.u.]": 76}
{"Modification": "2'F-ANA at 1 3 4 5 6 10 12 14", "mean fluorescence intensity [a.u.]": 46.6}
{"Modification": "2'F-ANA at 2 3 4 5 10 15", "mean fluorescence intensity [a.u.]": 85.4}
{"Modification": "2'F-ANA at 1 3 4 9 11 13", "mean fluorescence intensity [a.u.]": 132}
{"Modification": "2'F-ANA at 1 5 6 7 10 12", "mean fluorescence intensity [a.u.]": 69.1}
{"Modification": "2'F-ANA at 1 2 3 6 7 12 13 15", "mean fluorescence intensity [a.u.]": 339}
{"Modification": "2'F-ANA at 4 5 6 7 9 10 11 14", "mean fluorescence intensity [a.u.]": 43.1}
{"Modification": "2'F-ANA at 1 2 6 15", "mean fluorescence intensity [a.u.]": 177}
{"Modification": "2'F-ANA at 1 6 7 11 13 14 15", "mean fluorescence intensity [a.u.]": 56.9}
{"note": "Repeated from above (block 4):"}
{"Modification": "2'F-ANA at 3 4 5 8 10 11 12 15", "mean fluorescence intensity [a.u.]": 56.2}
{"Modification": "2'F-ANA at 1 2 5 6 7 12", "mean fluorescence intensity [a.u.]": 229}
{"Modification": "2'F-ANA at 1 3 5 6 7 8 9 14", "mean fluorescence intensity [a.u.]": 59.6}
{"Modification": "2'F-ANA at 2 3 4 5 6 8 9 11 15", "mean fluorescence intensity [a.u.]": 76}
{"Modification": "2'F-ANA at 1 3 4 5 6 10 12 14", "mean fluorescence intensity [a.u.]": 46.6}
{"Modification": "2'F-ANA at 2 3 4 5 10 15", "mean fluorescence intensity [a.u.]": 85.4}
{"Modification": "2'F-ANA at 1 3 4 9 11 13", "mean fluorescence intensity [a.u.]": 132}
{"Modification": "2'F-ANA at 1 5 6 7 10 12", "mean fluorescence intensity [a.u.]": 69.1}
{"Modification": "2'F-ANA at 1 2 3 6 7 12 13 15", "mean fluorescence intensity [a.u.]": 339}
